# Measurements pooled from the literature.
# Numbered parts are unrelated; each lists some results of a single study.
# UniProt P05771, sequence (whole entry, looked up): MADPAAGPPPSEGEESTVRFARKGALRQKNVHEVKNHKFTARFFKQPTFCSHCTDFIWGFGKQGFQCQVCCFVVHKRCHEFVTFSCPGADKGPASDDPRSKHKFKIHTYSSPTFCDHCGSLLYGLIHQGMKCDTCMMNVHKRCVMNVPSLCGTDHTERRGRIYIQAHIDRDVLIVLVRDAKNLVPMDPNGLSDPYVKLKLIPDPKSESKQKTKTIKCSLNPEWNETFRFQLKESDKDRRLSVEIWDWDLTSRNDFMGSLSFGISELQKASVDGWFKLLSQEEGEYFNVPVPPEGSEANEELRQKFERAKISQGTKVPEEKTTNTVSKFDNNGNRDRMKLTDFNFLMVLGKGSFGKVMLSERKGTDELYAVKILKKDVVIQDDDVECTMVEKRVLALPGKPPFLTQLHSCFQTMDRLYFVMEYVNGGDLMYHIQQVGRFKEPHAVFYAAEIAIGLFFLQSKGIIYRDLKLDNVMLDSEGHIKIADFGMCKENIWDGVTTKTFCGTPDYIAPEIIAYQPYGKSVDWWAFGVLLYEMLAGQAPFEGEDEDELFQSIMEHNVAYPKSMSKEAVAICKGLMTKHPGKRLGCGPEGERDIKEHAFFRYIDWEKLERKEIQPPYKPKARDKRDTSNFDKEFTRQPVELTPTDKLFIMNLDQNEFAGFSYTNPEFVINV
# UniProt P07947, sequence (whole entry, looked up): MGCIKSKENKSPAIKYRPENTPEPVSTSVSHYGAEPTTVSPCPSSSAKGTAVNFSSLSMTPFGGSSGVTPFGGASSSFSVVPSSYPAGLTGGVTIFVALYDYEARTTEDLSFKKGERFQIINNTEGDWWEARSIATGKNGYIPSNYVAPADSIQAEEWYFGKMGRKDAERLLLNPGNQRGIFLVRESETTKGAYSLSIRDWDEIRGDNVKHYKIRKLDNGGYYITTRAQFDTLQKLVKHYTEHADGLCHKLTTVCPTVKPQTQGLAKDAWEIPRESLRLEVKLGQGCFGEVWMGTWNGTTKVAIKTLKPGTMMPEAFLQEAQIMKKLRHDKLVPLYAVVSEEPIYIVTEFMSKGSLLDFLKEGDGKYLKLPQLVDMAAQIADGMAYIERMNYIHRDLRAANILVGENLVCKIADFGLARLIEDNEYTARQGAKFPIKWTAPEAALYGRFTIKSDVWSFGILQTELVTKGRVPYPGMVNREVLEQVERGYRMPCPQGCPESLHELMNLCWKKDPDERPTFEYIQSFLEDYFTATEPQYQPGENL
# UniProt P41279, sequence (whole entry, looked up): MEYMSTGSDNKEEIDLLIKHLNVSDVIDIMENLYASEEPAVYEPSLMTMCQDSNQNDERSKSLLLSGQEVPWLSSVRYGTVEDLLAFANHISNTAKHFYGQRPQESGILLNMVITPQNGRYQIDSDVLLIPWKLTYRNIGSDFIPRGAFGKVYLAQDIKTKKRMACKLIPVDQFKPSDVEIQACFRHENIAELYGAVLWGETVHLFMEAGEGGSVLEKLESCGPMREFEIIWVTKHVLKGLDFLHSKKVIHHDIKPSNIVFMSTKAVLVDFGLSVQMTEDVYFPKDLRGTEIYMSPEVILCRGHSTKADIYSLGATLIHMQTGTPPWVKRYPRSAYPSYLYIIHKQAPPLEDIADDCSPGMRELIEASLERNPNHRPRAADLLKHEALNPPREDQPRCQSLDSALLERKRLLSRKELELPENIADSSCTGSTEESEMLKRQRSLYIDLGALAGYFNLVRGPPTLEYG
# UniProt Q13131, sequence (whole entry, looked up): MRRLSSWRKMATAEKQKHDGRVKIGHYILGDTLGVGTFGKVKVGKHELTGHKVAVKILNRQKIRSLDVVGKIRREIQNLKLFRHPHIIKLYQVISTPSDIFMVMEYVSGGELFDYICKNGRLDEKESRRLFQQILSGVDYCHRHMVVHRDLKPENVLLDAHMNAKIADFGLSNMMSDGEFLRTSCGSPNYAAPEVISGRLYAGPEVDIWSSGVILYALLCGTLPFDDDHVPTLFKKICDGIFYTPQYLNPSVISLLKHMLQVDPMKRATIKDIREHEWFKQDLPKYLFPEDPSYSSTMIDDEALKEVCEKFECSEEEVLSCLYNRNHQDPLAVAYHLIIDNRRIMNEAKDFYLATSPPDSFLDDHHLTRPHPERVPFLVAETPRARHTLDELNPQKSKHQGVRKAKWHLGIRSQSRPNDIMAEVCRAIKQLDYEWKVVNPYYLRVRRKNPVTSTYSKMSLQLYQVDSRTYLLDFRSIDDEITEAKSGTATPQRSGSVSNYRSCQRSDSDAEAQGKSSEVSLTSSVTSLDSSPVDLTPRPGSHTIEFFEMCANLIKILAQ
# UniProt P48730, sequence (whole entry, looked up): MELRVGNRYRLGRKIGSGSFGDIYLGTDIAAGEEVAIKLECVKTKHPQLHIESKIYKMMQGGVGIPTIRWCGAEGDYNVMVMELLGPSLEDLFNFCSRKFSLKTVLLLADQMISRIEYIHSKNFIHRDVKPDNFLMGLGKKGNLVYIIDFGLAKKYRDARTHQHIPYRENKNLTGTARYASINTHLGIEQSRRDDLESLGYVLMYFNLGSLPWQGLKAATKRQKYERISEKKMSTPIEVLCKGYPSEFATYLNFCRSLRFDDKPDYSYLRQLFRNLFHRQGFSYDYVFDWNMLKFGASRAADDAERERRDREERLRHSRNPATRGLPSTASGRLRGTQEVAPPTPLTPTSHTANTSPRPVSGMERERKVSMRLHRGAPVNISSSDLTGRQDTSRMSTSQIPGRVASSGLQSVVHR
# UniProt Q13976, sequence (whole entry, looked up): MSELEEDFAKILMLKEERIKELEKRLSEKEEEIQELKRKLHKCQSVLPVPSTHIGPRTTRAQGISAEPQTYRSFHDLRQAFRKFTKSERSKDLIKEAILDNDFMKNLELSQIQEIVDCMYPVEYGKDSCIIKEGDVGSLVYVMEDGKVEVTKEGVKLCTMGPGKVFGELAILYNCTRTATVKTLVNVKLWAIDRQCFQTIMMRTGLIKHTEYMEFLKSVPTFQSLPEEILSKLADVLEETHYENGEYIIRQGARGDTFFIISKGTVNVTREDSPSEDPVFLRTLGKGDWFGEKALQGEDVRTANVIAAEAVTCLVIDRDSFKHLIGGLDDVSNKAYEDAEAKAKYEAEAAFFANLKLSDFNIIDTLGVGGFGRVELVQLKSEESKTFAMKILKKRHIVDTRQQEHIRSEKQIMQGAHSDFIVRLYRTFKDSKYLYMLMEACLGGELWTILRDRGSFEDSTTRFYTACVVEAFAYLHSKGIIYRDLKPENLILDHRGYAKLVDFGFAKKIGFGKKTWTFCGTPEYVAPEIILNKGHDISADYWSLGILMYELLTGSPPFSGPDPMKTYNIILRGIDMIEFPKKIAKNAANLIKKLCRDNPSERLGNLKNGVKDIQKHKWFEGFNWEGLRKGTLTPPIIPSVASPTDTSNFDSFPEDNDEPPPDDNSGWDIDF

# Study 1 — observed: enzyme activity; action: inhibitor; tested at: 0.5 µM; reference: control
# Target: Ribosomal protein S6 kinase alpha-2 (RPS6KA2, Homo sapiens, UniProt Q15349)
# UniProt Q15349, sequence (whole entry, looked up): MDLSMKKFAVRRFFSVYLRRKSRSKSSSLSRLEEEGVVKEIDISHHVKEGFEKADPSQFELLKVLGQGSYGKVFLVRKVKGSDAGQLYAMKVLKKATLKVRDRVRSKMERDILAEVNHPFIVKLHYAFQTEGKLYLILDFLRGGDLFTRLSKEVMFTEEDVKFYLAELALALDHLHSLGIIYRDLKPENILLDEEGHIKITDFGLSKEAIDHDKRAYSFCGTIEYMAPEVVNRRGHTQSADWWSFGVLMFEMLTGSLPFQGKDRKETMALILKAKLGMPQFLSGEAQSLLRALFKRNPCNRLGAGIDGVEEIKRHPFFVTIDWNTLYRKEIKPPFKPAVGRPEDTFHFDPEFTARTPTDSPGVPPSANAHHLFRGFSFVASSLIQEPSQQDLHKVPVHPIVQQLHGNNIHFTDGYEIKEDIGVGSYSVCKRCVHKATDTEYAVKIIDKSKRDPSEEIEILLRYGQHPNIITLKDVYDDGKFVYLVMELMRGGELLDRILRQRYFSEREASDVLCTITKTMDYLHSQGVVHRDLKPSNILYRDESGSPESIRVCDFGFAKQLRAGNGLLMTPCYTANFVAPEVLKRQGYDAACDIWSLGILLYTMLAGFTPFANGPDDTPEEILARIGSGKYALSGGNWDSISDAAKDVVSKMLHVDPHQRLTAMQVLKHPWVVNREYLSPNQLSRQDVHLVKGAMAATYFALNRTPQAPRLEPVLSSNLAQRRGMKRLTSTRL
Structure (SMILES),remaining activity [%]
N#CCCc1ccc2c(c1)-c1[nH]c3ccc([N+](=O)[O-])cc3c1CC(=O)N2,24.4
Cc1nc(-c2ccccc2)c(-c2ccncc2)o1,93
O=C(O)c1ccc2c3c1cccc3c(=O)n1c3ccccc3nc21,90.5
O=C1NC(=O)C(c2cn(CCCO)c3ncccc23)=C1c1cnccn1,73.2
Nc1ncnc2n[nH]c(Nc3ccc(F)cc3)c12,70.6
COc1ccc(OC)c2c(=S)c3ccccc3[nH]c12,87.4
CN(C)c1ccc(C=C2C(=O)Nc3ccccc32)cc1,89.1
CO[C@H]1C[C@@H]2CC[C@@H](C)[C@@](O)(O2)C(=O)C(=O)N2CCCC[C@H]2C(=O)O[C@H]([C@H](C)C[C@@H]2CC[C@@H](O)[C@H](OC)C2)CC(=O)[C@H](C)/C=C(\C)[C@@H](O)[C@@H](OC)C(=O)[C@H](C)C[C@H](C)/C=C/C=C/C=C/1C,89.5
Cc1cccc(-c2[nH]c(C(C)(C)C)nc2-c2ccc3c(c2)OCO3)n1,96.4
Cc1ccc(NC(=O)c2ccc(CN3CCN(C)CC3)cc2)cc1Nc1nc(-c2cccnc2)cs1,99.7
Cc1ccc(Nc2nccc(N(C)c3ccc4c(C)n(C)nc4c3)n2)cc1S(N)(=O)=O,93.2
CC(C)[C@H](CO)Nc1nc(Nc2cc(N)cc(Cl)c2)c2ncn(C(C)C)c2n1,48.7
O=C(CCCc1ccc(-c2ccccc2F)cc1)Nc1ccc(O)cc1,101
OCC(O)CCON=C1C(c2c(O)[nH]c3ccccc23)=Nc2ccccc21 (stereo not drawn),12.1
O=c1c2ccccc2[nH]c(=S)n1CCN1CCC(=C(c2ccc(F)cc2)c2ccc(F)cc2)CC1,107
COc1ccc(CNC(=O)Nc2ncc([N+](=O)[O-])s2)cc1,100

# Study 2 — observed: cell-free assay; method: competition with immobilised ligand; tested at: 0.1 µM
# SMILES: Nc1c(C(=O)NCc2ccc(C(=O)NCCCC3CCCCC3)cc2)cnn1-c1ccccc1
target,remaining binding [%]
"YES1 (Homo sapiens, UniProt P07947)",100
"TNK1 (Homo sapiens, UniProt Q13470)",91
"Non-receptor tyrosine-protein kinase TYK2, JH1 (TYK2, Homo sapiens, UniProt P29597)",100
"DSTYK (Homo sapiens, UniProt Q6XUX3)",100
"LYN (Homo sapiens, UniProt P07948)",100
"PRKAA1 (Homo sapiens, UniProt Q13131)",100

# Study 3 — observed: enzyme activity; action: inhibitor; tested at: 10 µM
# Target: Calcium/calmodulin-dependent protein kinase type II subunit alpha (CAMK2A, Homo sapiens, UniProt Q9UQM7)
# UniProt Q9UQM7, sequence (whole entry, looked up): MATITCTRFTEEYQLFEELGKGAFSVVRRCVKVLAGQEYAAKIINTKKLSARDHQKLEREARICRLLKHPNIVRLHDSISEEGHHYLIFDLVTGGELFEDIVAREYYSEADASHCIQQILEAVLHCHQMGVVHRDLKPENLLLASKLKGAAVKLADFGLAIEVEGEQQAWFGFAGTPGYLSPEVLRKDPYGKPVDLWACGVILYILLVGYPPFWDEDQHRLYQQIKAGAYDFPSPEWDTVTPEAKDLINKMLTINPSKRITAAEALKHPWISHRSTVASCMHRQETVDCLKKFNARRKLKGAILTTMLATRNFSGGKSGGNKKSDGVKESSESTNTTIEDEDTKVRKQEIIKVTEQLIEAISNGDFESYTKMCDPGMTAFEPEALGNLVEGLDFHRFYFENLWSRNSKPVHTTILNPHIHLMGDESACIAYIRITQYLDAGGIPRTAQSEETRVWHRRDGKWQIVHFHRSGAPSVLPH
SMILES,inhibition
OC[C@@H](O)[C@H](O)[C@H](O)[C@@H](O)CO,1%
O=P(O)(O)C(O)(Cc1cnc2ccccn12)P(=O)(O)O,-7%
O=C1CC[C@H](NC(=O)Cc2ccccc2)C(=O)N1,-4%
CCOCCn1c(N2CCCN(C)CC2)nc2ccccc21,-2%
CCN1C(=O)N(c2c(F)c(OC)cc(OC)c2F)Cc2cnc3[nH]c(CN4CCOCC4)cc3c21,-8%

# Study 4 — tested at: 5 µM
# Compound: O=C(Nc1cnn(-c2csc(C(=O)NC3COC3)c2)c1)Nc1ccccc1Cl
target,observed,action,method,reference,remaining activity [%]
"Protein kinase C beta type, isoform beta-I (PRKCB, Homo sapiens, UniProt P05771)",kinase activity,,kinase panel profiling,,102
"Cyclin-dependent kinase 2, with cyclin A1 (CDK2, Homo sapiens, UniProt P24941)",enzyme activity,inhibitor,,,106
"MAP3K8 (Homo sapiens, UniProt P41279)",enzyme activity,,,untreated control,92
"NTRK3 (Homo sapiens, UniProt Q16288)",enzyme activity,,,untreated control,64
"PRKG1 (Homo sapiens, UniProt Q13976)",enzyme activity,,,untreated control,107
"CSNK1D (Homo sapiens, UniProt P48730)",enzyme activity,,,untreated control,100
